Measurements of several laboratories.
Compare with care: the assays were run in different laboratories. Values joined by “and” are separate records of one study, mostly repeats; a detail may differ. ± gives the spread as reported. In brackets after ≈: the same amount, converted by molar mass.

SMILES	test	test system	conditions	scale	endpoint	value
CCCC[C@@H]1NC(=O)[C@H](Cc2ccc(O)cc2)NC(=O)[C@@H]2CCCN2C(=O)[C@H](CC(=O)O)NC(=O)[C@H](C)NC(=O)[C@H](Cc2ccccc2)NC(=O)[C@@H]2CSCCC(=O)N3CN(CN(C3)C(=O)CCSC[C@@H](C(=O)N[C@@H](C)C(N)=O)NC1=O)C(=O)CCSC[C@H](NC(C)=O)C(=O)N[C@@H](CC(C)(C)C)C(=O)N1CCC[C@H]1C(=O)N[C@@H](CCC(=O)O)C(=O)N[C@H](CCCCNC(=O)CCc1cn(CCOCCOCCOCCN(CCOCCOCCOCCC(=O)N[C@H]3CSCCC(=O)N4CN5CN(C4)C(=O)CCSC[C@H](NC(=O)[C@@H](CC(=O)O)NC(=O)[C@H](Cc4cccc6ccccc46)NC(=O)[C@@H]4CCCN4C3=O)C(=O)N[C@@H](CCSC)C(=O)N[C@@H](CCCCNC(=N)N)C(=O)N[C@@H](CC(=O)O)C(=O)N[C@@H](Cc3c[nH]c4ccccc34)C(=O)N[C@@H](CO)C(=O)N[C@@H]([C@@H](C)O)C(=O)N3CCC[C@H]3C(=O)N3C[C@H](O)C[C@H]3C(=O)N[C@@H](Cc3c[nH]c4ccccc34)C(=O)N[C@H](C(N)=O)CSCCC5=O)CCOCCOCCOCCn3cc(CCC(=O)NCCCC[C@H]4NC(=O)[C@H](CCC(=O)O)NC(=O)[C@@H]5CCCN5C(=O)[C@H](CC(C)(C)C)NC(=O)[C@@H](NC(C)=O)CSCCC(=O)N5CN6CN(C5)C(=O)CCSC[C@H](NC(=O)[C@H](Cc5ccc(O)cc5)NC(=O)[C@@H]5CCCN5C4=O)C(=O)N[C@@H](Cc4ccccc4)C(=O)N[C@@H](C)C(=O)N[C@@H](CC(=O)O)C(=O)N4CCC[C@H]4C(=O)N[C@@H](Cc4ccc(O)cc4)C(=O)N[C@@H](CCCC)C(=O)N[C@H](C(=O)N[C@@H](C)C(N)=O)CSCCC6=O)nn3)nn1)C(=O)N1CCC[C@H]1C(=O)N[C@@H](Cc1ccc(O)cc1)C(=O)N2	NanoString, refers to: Xbp1-mRNA	mouse bearing MC38-Nectin-4 tumour, circulating white blood cells	5 mg/kg, 24 h after dosing, unit not given	relative to: vehicle	mRNA level	1.58
CCCCCC1=C(NCC)C(=O)C(C/C=C(\C)CCC=C(C)C)=C(O)C1=O	RNA-seq, refers to: Stat2 regulon	mouse, striatum	dose not given	direction not given	normalised enrichment score	2.21
CCN(Cc1ccccc1)C(=O)CCc1nc(CN2CCN(C(=O)Cc3ccc(OC)c(OC)c3)CC2)no1	beam walking test	mouse, CCI neuropathic pain model	1 mg/kg	–	beam crossing time	8.09 ± 0.055 s
Cc1ccc(S(=O)(=O)N2CC2C(=O)N(C)C)cc1 (stereo not shown)	–	mouse, Lewis lung carcinoma	intraperitoneal, 170 mg/kg, 16 doses, day 9	–	tumour volume	371 mm3
CC[C@H](C)[C@H](NC(=O)[C@H](CCCNC(=N)N)NC(=O)[C@H](CO)NC(=O)[C@H](Cc1ccc(O)cc1)NC(=O)[C@@H](NC(=O)[C@@H](NC(=O)[C@H](C)NC(=O)CNC(=O)[C@H](CCCCN)NC(=O)[C@H](CCCCN)NC(=O)CCNC(=O)CCCCCNC(=O)[C@H](CCCNC(=N)N)NC(=O)CCCCCNC(=O)[C@H](CCCNC(=N)N)NC(=O)[C@H](CCCNC(=N)N)NC(=O)CCCCCNC(=O)[C@H](CCCNC(=N)N)NC(=O)[C@H](CCCNC(=N)N)NC(=O)CCCCCNC(=O)[C@H](CCCNC(=N)N)NC(=O)[C@H](CCCNC(=N)N)NC(=O)CCCCCNC(=O)[C@@H](N)CCCNC(=N)N)C(C)C)[C@@H](C)O)C(=O)N[C@@H](CO)C(=O)NCC(=O)N[C@@H](CCC(N)=O)C(=O)N[C@@H](Cc1ccc(O)cc1)C(=O)N[C@@H](CCCCN)C(=O)O	broth microdilution	ATCC 33592 resistant strain, Mueller-Hinton broth	–	–	MIC	24 µM (≈ 85.7 µg/mL)
NC(=NN=Cc1cccs1)[S][Ru+]([Cl])([P](c1ccccc1)(c1ccccc1)c1ccccc1)[P](c1ccccc1)(c1ccccc1)c1ccccc1.[Cl-]	nitric oxide radical scavenging, cell-free	–	–	–	IC50	27 µM
CC(C)C[C@H](NC(=O)[C@H](CCC(=O)O)NC(=O)[C@H](Cc1ccccc1)NC(=O)[C@@H]1CCCN1C(=O)CNC(=O)OCc1ccccc1)C(=O)N[C@@H](CCC(=O)O)C(=O)N[C@@H](CCCNC(=N)N)C(=O)N[C@@H](CCCNC(=N)N)C(=O)N[C@@H](Cc1ccccc1)C(=O)N[C@@H](CCCCN)C(=O)N[C@@H](CCC(N)=O)C(=O)N[C@@H](CCC(N)=O)C(=O)O	laser speckle imaging	mouse orthotopic tumour	dose not given	–	tumour blood flow	297 perfusion units
CC(C)C[C@@H]1NC(=O)[C@@H](Cc2c[nH]c3ccccc23)NC(=O)[C@H](CCCNC(=N)N)NC(=O)[C@@H](CCC(=O)O)NC(=O)[C@H](CCC(N)=O)NC(=O)[C@@H](CCC(=O)O)NC(=O)[C@H](CCCNC(=N)N)NC(=O)[C@@H](Cc2c[nH]c3ccccc23)NC1=O	Luminex, refers to: IL-12p40	LDLr-/- mice, Western diet, liver	dose not given, 4 weeks	–	cytokine level	200 ± 78 pg/g tissue
O=P(O)(O)Oc1c2c(c(OP(=O)(O)O)c3c1C1CC3c3cc4ccccc4cc31)C1CC2c2cc3ccccc3cc21	1H NMR titration, refers to: choline N-methyl signal	methanol-d4	with: sphingomyelin	–	association constant	166 ± 30 M⁻¹
COc1ccccc1-c1n[nH]c2nc(NC3CCN(C(=O)Cc4ccc(F)cc4F)CC3)ncc12	bead binding, competition bead pull-down, refers to: LINJ.30.0990	Leishmania donovani extract	10 µM	relative to: vehicle	relative abundance	0.99
Cc1ccc(C2=CC(C)(C)Oc3ccc(-c4ccc(-c5ccc(C(=O)O)cc5)[nH]4)cc32)cc1	–	CD1 mouse, male, testis	10 mg/kg/day, 4 weeks after treatment, dosed for 4 weeks	–	tubules with recovered spermatogenesis	92.5% and 85.8% and 79.6% and 82.3% and 97.9%
COc1ccccc1-c1n[nH]c2nc(N[C@H]3CC[C@H](NS(=O)(=O)CC(C)C)CC3)ncc12	bead binding, competition bead pull-down, refers to: LINJ.27.0100	Leishmania donovani extract	10 µM	relative to: vehicle	relative abundance	0.58
O=C(O)c1ccc(-c2nc(-c3ccccc3Cl)c3sccn23)cc1	–	C57BL/6 mice, 5-fluorouracil treated	oral, 100 mg/kg daily, day 11	–	platelet recovery	379% and 392% and 208% and 326%

Some of these lines once more:
SMILES	test	test system	conditions	scale	endpoint	value
Cc1ccc(C2=CC(C)(C)Oc3ccc(-c4ccc(-c5ccc(C(=O)O)cc5)[nH]4)cc32)cc1	–	CD1 mouse, male, testis	10 mg/kg/day, 4 weeks after treatment, dosed for 4 weeks	–	tubules with recovered spermatogenesis	92.5% and 85.8% and 79.6% and 82.3% and 97.9%
COc1ccccc1-c1n[nH]c2nc(N[C@H]3CC[C@H](NS(=O)(=O)CC(C)C)CC3)ncc12	bead binding, competition bead pull-down, refers to: LINJ.27.0100	Leishmania donovani extract	10 µM	relative to: vehicle	relative abundance	0.58
